Published values from different studies.
Compare with care: the assays were run in different laboratories. Values joined by “and” are separate records of one study, mostly repeats; a detail may differ.
B1: plakophilin-1 (human); sequence looked up; chain MNHSPLKTALAYECFQDQDNSTLALPSDQKMKTGTSGRQRVQEQVMMTVKRQKSKSSQSSTLSHSNRGSMYDGLADNYNYGTTSRSSYYSKFQAGNGSWGYPIYNGTLKREPDNRRFSSYSQMENWSRHYPRGSCNTTGAGSDICFMQKIKASRSEPDLYCDPRGTLRKGTLGSKGQKTTQNRYSFYSTCSGQKAIKKCPVRPPSCASKQDPVYIPPISCNKDLSFGHSRASSKICSEDIECSGLTIPKAVQYLSSQDEKYQAIGAYYIQHTCFQDESAKQQVYQLGGICKLVDLLRSPNQNVQQAAAGALRNLVFRSTTNKLETRRQNGIREAVSLLRRTGNAEIQKQLTGLLWNLSSTDELKEELIADALPVLADRVIIPFSGWCDGNSNMSREVVDPEVFFNATGCLRKRLGMRELLALVPQRATSSRVNLSSADAGRQTMRNYSGLIDSLMAYVQNCVAASRCDDKSVENCMCVLHNLSYRLDAEVPTRYRQLEYNARNAYTEKSSTGCFSNKSDKMMNNNYDCPLPEEETNPKGSGWLYHSDAIRTYLNLMGKSKKDATLEACAGALQNLTASKGLMSSGMSQLIGLKEKGLPQIARLLQSGNSDVVRSGASLLSNMSRHPLLHRVMGNQVFPEVTRLLTSHTGNTSNSEDILSSACYTVRNLMASQPQLAKQYFSSSMLNNIINLCRSSASPKAAEAARLLLSDMWSSKELQGVLRQQGFDRNMLGTLAGANSLRNFTSRF

Molecule	tested on	assay	system	setting	scale	quantity	value
colistin	Klebsiella pneumoniae	broth microdilution	clinical isolate RKI-No_229/15	–	–	MIC	≤ 0.5 µg/mL
ramoplanin	Klebsiella pneumoniae	broth microdilution	ATCC 700603	without peptide	–	MIC	640 µM
colistin	Klebsiella pneumoniae	–	9908, RPMI 1640 10% FBS	18 to 24 h, 37 °C	–	MIC	18.2 µM
gentamicin	Klebsiella pneumoniae	broth microdilution	ATCC 43816 ΔacrAB, cation-adjusted MHB	–	–	MIC	< 0.5 µg/mL
tigecycline	Klebsiella pneumoniae	broth microdilution	ATCC 700603	without peptide	–	MIC	0.63 µM
Polymyxin B	Klebsiella pneumoniae	–	NCTC 13438	–	reference: 5% CO2 over ambient air	MIC fold shift	0.5
B1 (plakophilin-1)	CYB5R4 knockout human cells	PP4 interaction, 3xFLAG-PP4C IP-MS	–	concentration not given	reference: CYB5R4 KO over parental	log2 fold change	0.92
colistin trifluoroacetate	Klebsiella pneumoniae	broth microdilution	ATCC 13883	–	–	MIC	0.5 µg/mL
human G6PD	CYB5R4 knockout human cells	PP4 interaction, 3xFLAG-PP4C IP-MS	–	concentration not given	reference: CYB5R4 KO over parental	log2 fold change	0.27
colistin	Klebsiella pneumoniae	broth microdilution	ATCC 13883	susceptible reference strain	–	MIC	0.25 µg/mL
Polymyxin B	Klebsiella pneumoniae	–	ATCC 43863	concentration not given	–	NADH level	4.44 pmol/µL and 4.81 pmol/µL and 4.8 pmol/µL

Some of these lines once more:
Molecule	tested on	assay	system	setting	scale	quantity	value
ramoplanin	Klebsiella pneumoniae	broth microdilution	ATCC 700603	without peptide	–	MIC	640 µM
